Results collected from several papers.
A part holds a random share of what one study measured.
UniProt P53671, sequence (whole entry, looked up): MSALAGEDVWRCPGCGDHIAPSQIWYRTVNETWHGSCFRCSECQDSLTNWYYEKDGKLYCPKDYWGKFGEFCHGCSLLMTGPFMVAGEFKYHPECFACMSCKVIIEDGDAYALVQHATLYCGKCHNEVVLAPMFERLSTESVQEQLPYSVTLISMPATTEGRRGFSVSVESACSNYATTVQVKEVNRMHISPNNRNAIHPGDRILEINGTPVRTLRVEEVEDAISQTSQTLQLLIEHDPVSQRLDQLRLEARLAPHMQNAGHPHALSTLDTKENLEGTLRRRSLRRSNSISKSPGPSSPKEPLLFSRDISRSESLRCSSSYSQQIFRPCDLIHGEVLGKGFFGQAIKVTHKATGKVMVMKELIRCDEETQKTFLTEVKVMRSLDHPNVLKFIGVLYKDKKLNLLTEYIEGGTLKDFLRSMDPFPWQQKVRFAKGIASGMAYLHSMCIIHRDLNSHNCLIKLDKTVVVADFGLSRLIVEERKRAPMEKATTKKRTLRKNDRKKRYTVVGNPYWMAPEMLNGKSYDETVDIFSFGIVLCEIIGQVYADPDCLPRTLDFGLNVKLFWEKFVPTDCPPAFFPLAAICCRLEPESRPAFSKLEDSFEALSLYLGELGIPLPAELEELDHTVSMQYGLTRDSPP
UniProt Q9UQB9, sequence (whole entry, looked up): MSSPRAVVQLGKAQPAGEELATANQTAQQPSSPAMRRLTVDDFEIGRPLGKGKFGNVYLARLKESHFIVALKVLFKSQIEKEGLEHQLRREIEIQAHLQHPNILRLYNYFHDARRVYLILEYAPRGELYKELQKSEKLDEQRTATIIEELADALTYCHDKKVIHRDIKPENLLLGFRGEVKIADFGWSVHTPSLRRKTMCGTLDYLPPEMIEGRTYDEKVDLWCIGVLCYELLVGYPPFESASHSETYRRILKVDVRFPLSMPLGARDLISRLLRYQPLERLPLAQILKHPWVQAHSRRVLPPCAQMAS
UniProt Q86UX6, sequence (whole entry, looked up): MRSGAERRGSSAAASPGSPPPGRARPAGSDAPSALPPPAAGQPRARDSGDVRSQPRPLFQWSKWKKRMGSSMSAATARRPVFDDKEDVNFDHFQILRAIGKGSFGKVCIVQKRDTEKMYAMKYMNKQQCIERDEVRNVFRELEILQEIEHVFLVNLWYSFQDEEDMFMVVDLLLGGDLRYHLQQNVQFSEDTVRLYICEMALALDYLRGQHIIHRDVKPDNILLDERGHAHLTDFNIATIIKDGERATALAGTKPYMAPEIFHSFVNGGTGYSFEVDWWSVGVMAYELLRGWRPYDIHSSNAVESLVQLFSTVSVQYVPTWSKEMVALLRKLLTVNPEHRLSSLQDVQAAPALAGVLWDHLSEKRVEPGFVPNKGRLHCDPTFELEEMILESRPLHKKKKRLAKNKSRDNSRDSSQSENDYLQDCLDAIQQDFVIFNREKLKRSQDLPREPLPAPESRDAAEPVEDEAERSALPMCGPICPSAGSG
UniProt P00519, sequence (whole entry, unmodified, looked up): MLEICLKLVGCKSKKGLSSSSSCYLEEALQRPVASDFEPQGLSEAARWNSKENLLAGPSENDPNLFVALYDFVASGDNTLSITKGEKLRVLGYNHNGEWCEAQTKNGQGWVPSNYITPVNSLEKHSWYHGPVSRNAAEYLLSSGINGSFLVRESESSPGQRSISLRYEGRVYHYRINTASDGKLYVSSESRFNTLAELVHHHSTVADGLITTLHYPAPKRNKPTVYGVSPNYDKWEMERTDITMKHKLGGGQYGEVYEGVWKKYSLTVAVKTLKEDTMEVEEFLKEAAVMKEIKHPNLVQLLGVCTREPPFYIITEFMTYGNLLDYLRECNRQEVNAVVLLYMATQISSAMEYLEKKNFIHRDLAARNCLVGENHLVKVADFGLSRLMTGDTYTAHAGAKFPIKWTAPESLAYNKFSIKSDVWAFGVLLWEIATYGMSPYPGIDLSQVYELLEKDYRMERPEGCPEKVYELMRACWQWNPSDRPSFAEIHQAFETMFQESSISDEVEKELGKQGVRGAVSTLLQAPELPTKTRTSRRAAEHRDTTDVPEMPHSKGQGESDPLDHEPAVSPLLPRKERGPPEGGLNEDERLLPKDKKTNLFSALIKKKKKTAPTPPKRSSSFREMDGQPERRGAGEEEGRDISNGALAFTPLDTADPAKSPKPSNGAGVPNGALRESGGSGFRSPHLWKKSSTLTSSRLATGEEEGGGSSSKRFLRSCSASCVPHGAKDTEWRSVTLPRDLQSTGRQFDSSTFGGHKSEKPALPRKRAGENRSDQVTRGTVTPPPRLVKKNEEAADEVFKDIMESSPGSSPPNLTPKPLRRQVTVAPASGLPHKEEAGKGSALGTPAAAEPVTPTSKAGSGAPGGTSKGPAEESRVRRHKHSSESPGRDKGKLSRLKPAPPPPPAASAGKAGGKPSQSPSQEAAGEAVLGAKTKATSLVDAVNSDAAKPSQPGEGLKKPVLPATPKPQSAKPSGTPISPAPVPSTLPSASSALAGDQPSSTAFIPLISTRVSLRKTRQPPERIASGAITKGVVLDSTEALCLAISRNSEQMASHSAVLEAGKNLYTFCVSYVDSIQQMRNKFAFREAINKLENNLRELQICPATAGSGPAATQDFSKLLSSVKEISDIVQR
UniProt Q9H1R3, sequence (whole entry, looked up): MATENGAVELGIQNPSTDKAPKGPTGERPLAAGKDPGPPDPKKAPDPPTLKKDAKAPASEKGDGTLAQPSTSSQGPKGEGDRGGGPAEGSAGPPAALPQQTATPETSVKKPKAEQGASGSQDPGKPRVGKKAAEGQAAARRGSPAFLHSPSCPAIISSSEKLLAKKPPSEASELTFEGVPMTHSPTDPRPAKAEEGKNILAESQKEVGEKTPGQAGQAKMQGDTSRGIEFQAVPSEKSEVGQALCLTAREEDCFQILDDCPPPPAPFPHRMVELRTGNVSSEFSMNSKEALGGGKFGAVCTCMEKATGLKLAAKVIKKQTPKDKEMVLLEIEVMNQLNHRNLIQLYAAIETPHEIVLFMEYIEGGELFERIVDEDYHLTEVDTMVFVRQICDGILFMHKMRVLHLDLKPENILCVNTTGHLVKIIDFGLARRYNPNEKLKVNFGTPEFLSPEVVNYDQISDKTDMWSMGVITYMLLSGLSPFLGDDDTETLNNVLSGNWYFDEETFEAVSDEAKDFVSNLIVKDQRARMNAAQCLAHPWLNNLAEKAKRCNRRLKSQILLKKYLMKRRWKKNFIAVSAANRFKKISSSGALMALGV
UniProt Q9H2K8, sequence (whole entry, looked up): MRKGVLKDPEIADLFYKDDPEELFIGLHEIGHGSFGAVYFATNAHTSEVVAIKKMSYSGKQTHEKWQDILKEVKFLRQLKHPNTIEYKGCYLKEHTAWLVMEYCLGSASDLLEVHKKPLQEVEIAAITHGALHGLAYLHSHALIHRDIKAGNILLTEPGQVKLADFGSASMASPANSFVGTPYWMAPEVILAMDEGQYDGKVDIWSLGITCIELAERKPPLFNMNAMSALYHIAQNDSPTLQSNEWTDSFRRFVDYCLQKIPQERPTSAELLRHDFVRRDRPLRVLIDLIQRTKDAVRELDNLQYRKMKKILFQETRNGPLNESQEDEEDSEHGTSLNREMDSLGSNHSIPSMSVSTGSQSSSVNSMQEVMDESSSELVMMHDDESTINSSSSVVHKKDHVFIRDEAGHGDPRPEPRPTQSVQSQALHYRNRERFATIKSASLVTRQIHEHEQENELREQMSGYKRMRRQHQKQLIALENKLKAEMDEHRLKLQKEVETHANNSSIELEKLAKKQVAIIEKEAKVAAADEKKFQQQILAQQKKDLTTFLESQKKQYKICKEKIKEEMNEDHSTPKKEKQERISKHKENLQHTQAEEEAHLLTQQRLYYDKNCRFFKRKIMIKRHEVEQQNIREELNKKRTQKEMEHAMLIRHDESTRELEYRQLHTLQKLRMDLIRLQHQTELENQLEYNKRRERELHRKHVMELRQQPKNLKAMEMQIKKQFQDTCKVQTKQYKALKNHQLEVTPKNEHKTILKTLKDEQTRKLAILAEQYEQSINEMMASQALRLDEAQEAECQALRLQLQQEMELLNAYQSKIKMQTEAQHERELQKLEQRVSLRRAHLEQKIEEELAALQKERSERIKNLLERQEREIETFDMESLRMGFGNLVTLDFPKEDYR
UniProt P45985, sequence (whole entry, looked up): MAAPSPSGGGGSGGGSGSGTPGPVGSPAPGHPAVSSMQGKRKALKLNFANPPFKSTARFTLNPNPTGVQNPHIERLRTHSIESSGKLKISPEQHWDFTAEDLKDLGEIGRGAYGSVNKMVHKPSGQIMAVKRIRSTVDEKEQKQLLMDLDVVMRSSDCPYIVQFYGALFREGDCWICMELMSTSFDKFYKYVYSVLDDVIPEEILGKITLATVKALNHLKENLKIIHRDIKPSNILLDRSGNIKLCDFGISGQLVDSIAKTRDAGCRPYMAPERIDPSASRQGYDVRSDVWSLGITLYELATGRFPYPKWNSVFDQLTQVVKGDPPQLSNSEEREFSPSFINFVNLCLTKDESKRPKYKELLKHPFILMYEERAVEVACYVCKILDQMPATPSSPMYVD

Sample 1
Species: mouse
Medium: microsomes or S9
Tested at: 2 µM
Time: 0.5 h
Quantity: remaining compound
CCn1nc(-c2nnc3n2CC(C)(C)CC3)c2ccccc2c1=O: 79.4%
O=C(Nc1ccc2nc(N3CCN(c4ccccc4)CC3)cc(C(=O)O)c2c1)c1ccccc1F: 69.5%
COCC(C)N(Cc1cc(OC)cc(OC)c1)C(=O)CCCC(C)=O (stereo not shown): 7.77%
Nc1c(Br)cc(Br)cc1C(=O)NC1CCCCC1: 31.6%
COc1cc2c(Br)c(O)c(Br)cc2cc1Cc1ccccc1: 75.4%
CC1=NN(c2ccc3nncn3n2)C(=N)C1C(O)C(F)(F)F (stereo not shown): 82.4%
O=C1Nc2ccccc2Oc2cc(Oc3cccc4cccnc34)c(S(=O)(=O)N3CCOCC3)cc21: 2.53%
CCNC(=O)Nc1ccc2c(cnn2-c2cc(C(C)=O)c(Cl)cc2Cl)c1: 1.57%

Sample 2
Structure (SMILES): C[C@@]1(Cc2ccc(C#N)cc2)C(=O)N(c2cc(Cl)cc(Cl)c2)c2ncc(C(=O)NC3(c4nc(C5CCC5)no4)CC3)n21
Tested at: 1 µM
Quantity: remaining binding
Receptor-type tyrosine-protein kinase FLT3, autoinhibited (FLT3, Homo sapiens, UniProt P36888); cell-free assay, competition with immobilised ligand: 100%
Aurora kinase C (AURKC, Homo sapiens, UniProt Q9UQB9); cell-free assay, competition with immobilised ligand: 100%
Tyrosine-protein kinase ABL1, non-phosphorylated (ABL1, Homo sapiens, UniProt P00519, F317L); cell-free assay, competition with immobilised ligand: 100%
AP2-associated protein kinase 1 (AAK1, Homo sapiens, UniProt Q2M2I8); binding: 100%
Serine/threonine-protein kinase WNK3 (WNK3, Homo sapiens, UniProt Q9BYP7); cell-free assay, competition with immobilised ligand: 100%
Serine/threonine-protein kinase 32C (STK32C, Homo sapiens, UniProt Q86UX6); cell-free assay, competition with immobilised ligand: 99%
Myosin light chain kinase 2, skeletal/cardiac muscle (MYLK2, Homo sapiens, UniProt Q9H1R3); cell-free assay, competition with immobilised ligand: 100%
Receptor-type tyrosine-protein kinase FLT3 (FLT3, Homo sapiens, UniProt P36888, D835V/ITD); cell-free assay, competition with immobilised ligand: 100%
Dual specificity mitogen-activated protein kinase kinase 4 (MAP2K4, Homo sapiens, UniProt P45985); cell-free assay, competition with immobilised ligand: 100%
Serine/threonine-protein kinase/endoribonuclease IRE1 (ERN1, Homo sapiens, UniProt O75460); cell-free assay, competition with immobilised ligand: 82%
LIM domain kinase 2 (LIMK2, Homo sapiens, UniProt P53671); cell-free assay, competition with immobilised ligand: 100%
Serine/threonine-protein kinase TAO3 (TAOK3, Homo sapiens, UniProt Q9H2K8); cell-free assay, competition with immobilised ligand: 91%
Phosphatidylinositol 4,5-bisphosphate 3-kinase catalytic subunit alpha isoform (PIK3CA, Homo sapiens, UniProt P42336, Q546K); cell-free assay, competition with immobilised ligand: 88%
Dual specificity tyrosine-phosphorylation-regulated kinase 1B (DYRK1B, Homo sapiens, UniProt Q9Y463); cell-free assay, competition with immobilised ligand: 80%

Sample 3
Target: Serine/threonine-protein kinase Nek2 (NEK2, Homo sapiens, UniProt P51955)
UniProt P51955, sequence (whole entry, looked up): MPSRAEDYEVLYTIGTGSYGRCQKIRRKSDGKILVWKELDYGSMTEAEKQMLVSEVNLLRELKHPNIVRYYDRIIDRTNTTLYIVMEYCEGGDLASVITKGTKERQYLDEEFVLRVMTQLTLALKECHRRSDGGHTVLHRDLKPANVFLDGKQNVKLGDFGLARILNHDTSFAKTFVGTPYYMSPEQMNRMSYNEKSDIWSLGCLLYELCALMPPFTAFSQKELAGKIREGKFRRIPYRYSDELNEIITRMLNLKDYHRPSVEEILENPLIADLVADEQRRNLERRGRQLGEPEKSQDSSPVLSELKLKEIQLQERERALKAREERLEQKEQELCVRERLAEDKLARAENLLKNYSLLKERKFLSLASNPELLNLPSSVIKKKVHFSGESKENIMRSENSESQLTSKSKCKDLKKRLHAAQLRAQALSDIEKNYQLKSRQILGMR
Read-out: enzyme activity
Action: inhibitor
Tested at: 0.5 µM
Baseline: control
Quantity: remaining activity
N#Cc1c(NC(=O)c2cccc3ccccc23)sc2c1CCCC2: 88.1%
CCOc1nc(NC(=O)Cc2cc(OC)ccc2OC)cc(N)c1C#N: 87.7%
Cc1cn(-c2cc(NC(=O)c3ccc(C)c(Nc4nccc(-c5cccnc5)n4)c3)cc(C(F)(F)F)c2)cn1: 103%
O=c1cc(-c2cccc3c2Sc2ccccc2S3)oc(N2CCOCC2)c1: 103%
Ic1cccc(CSc2nnc(-c3ccncc3)o2)c1: 100%
O=C1c2ccccc2-c2n[nH]c3cccc1c23: 104%
COc1cc2c(cc1OC)-c1[nH]nc(Nc3cccc(F)c3)c1C2: 93%
O=C1C(Cl)=C(N2C(=O)CCC2=O)C(=O)c2ccccc21: 88.6%
CCN(CC)CCNC(=O)c1c(C)[nH]c(/C=C2\C(=O)Nc3ccc(Cl)cc32)c1C: 77.2%
c1ccc(-c2cnc(Nc3ccc(OCCN4CCCC4)cc3)s2)cc1: 90.6%
O=C(NC(NC(=S)Nc1ccc(F)c([N+](=O)[O-])c1)C(Cl)(Cl)Cl)C(c1ccccc1)c1ccccc1 (stereo not shown): 112%
N#C/C(=C\c1ccc(O)c(O)c1)C(=O)NCc1ccccc1: 102%
CN([C@@H](Cc1ccc(OS(=O)(=O)c2cccc3cnccc23)cc1)C(=O)N1CCN(c2ccccc2)CC1)S(=O)(=O)c1cccc2cnccc12: 87.4%
Cn1nc2c3c(cccc31)C(=O)c1ccccc1-2: 88.2%
Cc1nc2cc3nc(-c4cccs4)cnc3cc2n1C: 97%
CN(C)C[C@H]1CCn2c(c(C3=C(c4cn(C)c5ccccc45)C(=O)NC3=O)c3ccccc32)C1: 106%
CCN(CC)C(=O)c1ccc(Nc2nc(OCC3CCCCC3)c3[nH]cnc3n2)cc1: 91.4%
O=C(Nc1cccc(Nc2nccc(Nc3cccc(C(F)(F)F)c3)n2)c1)C1CC1: 95.3%
CCN(CC)CCNC(=O)c1c(C)[nH]c(/C=C2\C(=O)Nc3ccc(F)cc32)c1C: 106%
COc1cc2ncnc(Nc3cccc(Cl)c3)c2cc1OC: 88.3%
c1ccc(-c2[nH]ncc2-c2ccnc3ccccc23)nc1: 97%
COc1cc2ncnc(Nc3ccc(O)c(Br)c3)c2cc1OC: 105%
C[C@@H]1CCN(C(=O)CC#N)C[C@@H]1N(C)c1ncnc2[nH]ccc12: 103%
Cc1cc2ncc(-c3ccccc3)nc2cc1C: 75.7%
Nc1cccc(-c2cc3c(Oc4cccc(O)c4)ncnc3[nH]2)c1: 98%

Sample 4
Cell line: mouse MPNST tumor cells
Method: high-content nuclear imaging
Refers to: cell number
Tested at: 10 µM
Time: 12 h
Setting: mean of 2 replicates
Baseline: plate mean
Reading: higher = more cells
Quantity: nuclei count
O=C(O)[C@H]1/C(=C/CO)O[C@@H]2CC(=O)N21: 1.08 z-score
O=C(NO)c1cccc(C(=O)NCCc2ccccc2)c1: 3.06 z-score
Cc1cccc(Nc2ccncc2S(=O)(=O)NC(=O)NC(C)C)c1: 0.731 z-score
C[C@@H](O)[C@H]1C(=O)N2C(C(=O)O)=C(SCCNC=N)C[C@H]12: -0.421 z-score
O/N=C/c1ccc(-c2ccc(O)c(F)c2)c(Cl)c1O: 5.9 z-score
CC(C)(C)c1ccc(S(=O)(=O)/C=C/C#N)cc1: -5.58 z-score
Nc1cc(C(Cl)=C(Cl)Cl)c(S(N)(=O)=O)cc1S(N)(=O)=O: 0.866 z-score
O=C(O)COC(=O)Cc1ccccc1Nc1c(Cl)cccc1Cl: 0.801 z-score
CCN(CC)C(=O)c1ccc(Nc2nc(OCC3CCCCC3)c3[nH]cnc3n2)cc1: -2.76 z-score
NC(=O)N1c2ccccc2CC(=O)c2ccccc21: 0.0114 z-score
CCn1c(-c2nonc2N)nc2c(C#CC(C)(C)O)ncc(OC[C@H]3CCCNC3)c21: 3.56 z-score
O=c1[nH]c(=O)n([C@H]2C[C@H](O)[C@@H](CO)O2)cc1F: -2.37 z-score
OC(c1ccc(-c2ccc(CN3CCN(Cc4ccncc4)CC3)cc2)c(F)c1)(C(F)(F)F)C(F)(F)F: 0.521 z-score
N[C@@H](CCC(=O)N[C@@H](CSN=O)C(=O)NCC(=O)O)C(=O)O: 3.03 z-score

Repeated from above (sample 1):
CCNC(=O)Nc1ccc2c(cnn2-c2cc(C(C)=O)c(Cl)cc2Cl)c1: 1.57%
O=C(Nc1ccc2nc(N3CCN(c4ccccc4)CC3)cc(C(=O)O)c2c1)c1ccccc1F: 69.5%
CC1=NN(c2ccc3nncn3n2)C(=N)C1C(O)C(F)(F)F (stereo not shown): 82.4%
COc1cc2c(Br)c(O)c(Br)cc2cc1Cc1ccccc1: 75.4%
CCn1nc(-c2nnc3n2CC(C)(C)CC3)c2ccccc2c1=O: 79.4%
Nc1c(Br)cc(Br)cc1C(=O)NC1CCCCC1: 31.6%
